Measured values pooled from the literature.
Each numbered part is a random draw from the data of one study; scales do not carry over between parts.
Chain of UniProt O43283 (whole entry, looked up): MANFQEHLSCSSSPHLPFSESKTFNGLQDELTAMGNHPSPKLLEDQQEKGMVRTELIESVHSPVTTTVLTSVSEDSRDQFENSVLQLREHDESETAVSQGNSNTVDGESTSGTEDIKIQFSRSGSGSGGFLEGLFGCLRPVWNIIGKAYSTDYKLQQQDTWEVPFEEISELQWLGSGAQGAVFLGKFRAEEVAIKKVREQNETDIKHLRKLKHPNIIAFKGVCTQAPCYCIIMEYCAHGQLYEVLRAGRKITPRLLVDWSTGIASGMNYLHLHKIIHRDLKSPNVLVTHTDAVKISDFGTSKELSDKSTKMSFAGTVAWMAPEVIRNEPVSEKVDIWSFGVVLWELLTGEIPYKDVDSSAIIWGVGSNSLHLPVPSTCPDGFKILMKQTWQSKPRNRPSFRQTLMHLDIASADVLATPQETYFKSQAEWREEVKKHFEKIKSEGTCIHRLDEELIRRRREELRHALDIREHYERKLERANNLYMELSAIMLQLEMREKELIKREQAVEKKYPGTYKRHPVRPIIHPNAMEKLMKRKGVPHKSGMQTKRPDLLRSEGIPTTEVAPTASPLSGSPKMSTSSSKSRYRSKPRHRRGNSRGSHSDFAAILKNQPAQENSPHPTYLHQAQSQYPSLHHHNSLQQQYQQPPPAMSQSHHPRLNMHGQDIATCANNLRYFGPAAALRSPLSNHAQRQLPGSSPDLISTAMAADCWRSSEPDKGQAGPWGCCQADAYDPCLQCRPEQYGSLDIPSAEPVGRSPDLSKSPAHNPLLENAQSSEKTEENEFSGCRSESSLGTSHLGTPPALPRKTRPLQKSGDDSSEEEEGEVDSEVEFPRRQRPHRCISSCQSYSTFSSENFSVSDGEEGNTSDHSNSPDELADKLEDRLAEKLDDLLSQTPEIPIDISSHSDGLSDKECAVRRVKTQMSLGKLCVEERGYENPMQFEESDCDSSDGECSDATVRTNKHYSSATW
Chain of UniProt P22455 (whole entry, looked up): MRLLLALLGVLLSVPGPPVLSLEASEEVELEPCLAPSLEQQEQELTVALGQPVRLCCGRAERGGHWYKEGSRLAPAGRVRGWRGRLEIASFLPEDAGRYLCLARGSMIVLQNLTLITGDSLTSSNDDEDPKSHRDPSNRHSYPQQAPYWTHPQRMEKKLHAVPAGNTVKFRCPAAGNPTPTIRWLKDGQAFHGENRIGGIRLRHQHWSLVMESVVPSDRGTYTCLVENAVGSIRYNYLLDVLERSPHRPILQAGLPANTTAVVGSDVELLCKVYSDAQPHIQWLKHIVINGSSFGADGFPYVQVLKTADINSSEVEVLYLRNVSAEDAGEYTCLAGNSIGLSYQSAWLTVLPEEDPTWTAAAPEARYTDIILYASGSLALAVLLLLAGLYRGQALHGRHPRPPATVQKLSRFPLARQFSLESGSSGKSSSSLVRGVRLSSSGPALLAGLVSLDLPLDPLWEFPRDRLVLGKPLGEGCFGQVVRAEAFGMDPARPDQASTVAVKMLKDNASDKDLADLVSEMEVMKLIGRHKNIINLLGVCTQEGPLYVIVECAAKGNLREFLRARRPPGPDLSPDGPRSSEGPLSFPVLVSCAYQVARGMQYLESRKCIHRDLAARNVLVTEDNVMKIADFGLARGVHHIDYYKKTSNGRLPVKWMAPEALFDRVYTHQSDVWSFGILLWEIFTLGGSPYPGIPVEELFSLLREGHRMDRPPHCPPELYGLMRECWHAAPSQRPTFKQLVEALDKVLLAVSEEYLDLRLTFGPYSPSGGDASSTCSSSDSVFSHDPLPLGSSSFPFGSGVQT
Chain of UniProt P29597 (whole entry, looked up): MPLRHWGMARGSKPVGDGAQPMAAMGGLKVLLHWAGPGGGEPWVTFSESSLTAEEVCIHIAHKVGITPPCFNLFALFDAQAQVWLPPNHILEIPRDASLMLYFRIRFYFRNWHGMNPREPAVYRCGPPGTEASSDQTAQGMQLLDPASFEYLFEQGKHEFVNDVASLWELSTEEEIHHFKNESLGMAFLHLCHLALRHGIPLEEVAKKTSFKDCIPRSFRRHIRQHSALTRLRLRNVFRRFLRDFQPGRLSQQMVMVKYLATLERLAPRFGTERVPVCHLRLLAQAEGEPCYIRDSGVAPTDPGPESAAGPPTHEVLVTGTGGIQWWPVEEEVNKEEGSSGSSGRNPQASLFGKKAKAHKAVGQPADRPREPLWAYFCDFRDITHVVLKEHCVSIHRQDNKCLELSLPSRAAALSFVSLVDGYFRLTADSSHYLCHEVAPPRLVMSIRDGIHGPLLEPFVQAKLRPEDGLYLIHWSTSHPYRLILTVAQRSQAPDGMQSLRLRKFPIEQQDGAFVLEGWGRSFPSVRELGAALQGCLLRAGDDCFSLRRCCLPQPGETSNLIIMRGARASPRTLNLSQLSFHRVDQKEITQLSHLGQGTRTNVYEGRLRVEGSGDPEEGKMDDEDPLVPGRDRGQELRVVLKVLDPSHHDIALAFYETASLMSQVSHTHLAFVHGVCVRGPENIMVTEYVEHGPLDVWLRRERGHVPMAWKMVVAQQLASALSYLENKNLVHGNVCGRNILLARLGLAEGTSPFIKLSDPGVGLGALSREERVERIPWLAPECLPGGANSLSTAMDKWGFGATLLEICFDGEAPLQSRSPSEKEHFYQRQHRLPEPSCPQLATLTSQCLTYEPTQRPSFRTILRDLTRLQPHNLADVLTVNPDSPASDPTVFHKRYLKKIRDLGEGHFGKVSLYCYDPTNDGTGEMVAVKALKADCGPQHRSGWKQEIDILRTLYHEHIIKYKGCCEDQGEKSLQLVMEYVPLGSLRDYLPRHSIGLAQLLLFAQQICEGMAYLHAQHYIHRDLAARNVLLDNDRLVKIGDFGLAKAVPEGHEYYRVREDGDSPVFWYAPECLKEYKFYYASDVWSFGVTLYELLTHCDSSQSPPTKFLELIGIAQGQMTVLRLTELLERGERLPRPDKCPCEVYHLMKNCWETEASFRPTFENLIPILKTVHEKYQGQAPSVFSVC

Block 1
Structure (SMILES): Cc1ccc(NC(=O)c2ccnc(C(F)(F)F)c2)cc1-c1cc(OCCO)nc(N2CCOCC2)c1
Tested at: 1 µM
target	effect on	method	remaining binding
MAP3K13 (Homo sapiens, UniProt O43283)	binding	competition with immobilised ligand	94%
Non-receptor tyrosine-protein kinase TYK2, JH1 (TYK2, Homo sapiens, UniProt P29597)	cell-free assay	competition with immobilised ligand	97%
FGFR4 (Homo sapiens, UniProt P22455)	binding		100%

Block 2
Target: Tyrosine-protein kinase ABL1, phosphorylated (ABL1, Homo sapiens, UniProt P00519, E255K)
Chain of UniProt P00519 (whole entry, unmodified, looked up): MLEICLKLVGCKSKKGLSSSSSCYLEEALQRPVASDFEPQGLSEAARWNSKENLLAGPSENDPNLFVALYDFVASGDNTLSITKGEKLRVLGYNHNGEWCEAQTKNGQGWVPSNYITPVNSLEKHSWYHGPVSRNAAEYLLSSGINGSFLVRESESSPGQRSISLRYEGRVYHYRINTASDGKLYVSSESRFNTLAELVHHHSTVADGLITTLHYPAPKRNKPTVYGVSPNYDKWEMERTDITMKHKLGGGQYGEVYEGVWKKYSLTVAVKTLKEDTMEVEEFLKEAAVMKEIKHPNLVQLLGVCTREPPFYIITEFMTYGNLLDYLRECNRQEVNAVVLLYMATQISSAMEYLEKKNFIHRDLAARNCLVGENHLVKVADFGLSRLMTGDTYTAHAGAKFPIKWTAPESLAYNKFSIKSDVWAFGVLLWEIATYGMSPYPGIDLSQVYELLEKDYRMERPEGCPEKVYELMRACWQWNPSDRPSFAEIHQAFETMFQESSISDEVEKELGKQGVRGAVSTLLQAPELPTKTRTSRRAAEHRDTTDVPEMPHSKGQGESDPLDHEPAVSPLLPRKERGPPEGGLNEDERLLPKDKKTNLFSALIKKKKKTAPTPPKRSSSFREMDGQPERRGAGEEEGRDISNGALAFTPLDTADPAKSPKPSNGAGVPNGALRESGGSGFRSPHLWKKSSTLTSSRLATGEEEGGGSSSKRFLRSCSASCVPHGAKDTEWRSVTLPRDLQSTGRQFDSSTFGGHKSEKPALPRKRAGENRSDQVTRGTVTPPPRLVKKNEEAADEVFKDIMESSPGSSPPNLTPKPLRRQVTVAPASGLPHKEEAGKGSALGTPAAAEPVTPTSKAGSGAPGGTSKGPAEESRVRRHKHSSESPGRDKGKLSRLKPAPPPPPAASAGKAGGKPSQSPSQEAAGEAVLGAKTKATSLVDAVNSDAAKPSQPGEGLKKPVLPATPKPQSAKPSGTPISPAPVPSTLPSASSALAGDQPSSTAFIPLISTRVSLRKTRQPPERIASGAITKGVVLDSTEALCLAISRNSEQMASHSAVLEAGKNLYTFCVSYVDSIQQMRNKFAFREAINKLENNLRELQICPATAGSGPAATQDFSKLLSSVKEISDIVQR
Effect on: binding
Method: competition with immobilised ligand
Tested at: 0.1 µM
Structure (SMILES)	remaining binding [%]
C[C@@H](NC(=O)Nc1cc2[nH]ncc2c(CO)n1)c1ccccc1	83.4
Cc1ccc(-c2cnc([C@@]3(O)CC[C@H](C(=O)O)C(C)(C)C3)s2)cc1Nc1cccc(C(F)(F)F)n1	80.8
Cc1cc(Nc2nccc(C)n2)cc(-c2cnc([C@@]3(O)CC[C@H](C(=O)O)C(C)(C)C3)s2)c1	55.1

Block 3
SMILES: CC(C)n1cnc(-c2ccc(F)cc2)c1-c1ncc(C(=O)Nc2ccc(N3CCN(C)CC3)cc2)[nH]1
Method: phase 2a trial
Species: idiopathic pulmonary fibrosis patients
Dose: all arms pooled
setting	patients with hypokalaemia [%]
grade 5 emergent event	0
grade 3 emergent event	0
grade 4 emergent event	0

Block 4
Cell line: mouse MPNST tumor cells
Method: high-content nuclear imaging
Measured: cell number
Tested at: 10 µM
Time: 12 h
Setting: mean of 2 replicates
Reference: plate mean
Direction: higher = more cells
SMILES	nuclei count [z-score]
CCN(CC)CCNC(=O)c1cc(Cl)c(N)cc1OC	-0.746
Cc1ccc(C(C)(O)c2nc3ccccc3s2)c(C)c1 (centres unmarked)	2.89
Cc1cc(C(=O)Nc2cccc(C(=O)Nc3cccc(C(F)(F)F)c3)c2)on1	1.02
CCCNC(C)C(=O)Nc1c(C)csc1C(=O)OC (centres unmarked)	0.804
CC(C)n1nc(-c2cc3cc(O)ccc3[nH]2)c2c(N)ncnc21	-2.56

Excerpt of the above (block 3):
setting	patients with hypokalaemia [%]
grade 3 emergent event	0
